Measured values from different studies.
Each line is one published result; not all experiments were run side by side. Values joined by “and” are separate records of one study, mostly repeats; a detail may differ. Numbers after ± are the reported error.
LGALS9: Galectin-9 (LGALS9, Homo sapiens, UniProt O00182)
NLRP3: NACHT, LRR and PYD domains-containing protein 3 (NLRP3, Homo sapiens, UniProt Q96P20)
BPTF bromodomain: Nucleosome-remodeling factor subunit BPTF, bromodomain (BPTF, Homo sapiens, UniProt Q12830)

target | test | setting | Kd | SMILES
Proline--tRNA ligase (Plasmodium falciparum, UniProt Q8I5R7) | binding, microscale thermophoresis | – | 0.243 µM and 0.201 µM | Cc1cc(N2CCC(CO)(C3CC3)C2=O)cc(C(=O)NCc2cc(F)cc(-c3cnn(C)c3)c2)n1 (stereo not drawn)
RIPK3 (Homo sapiens, UniProt Q9Y572) | binding, competition with immobilised ligand | – | 0.14 µM | CC(O)c1c(Oc2ccc(F)c(NC(=O)Cc3cccc(C(F)(F)F)c3)c2)ccc2nc(NC(=O)C3CC3)sc12 (stereo not drawn)
LGALS9 | cell-free assay, FP | – | 2800 µM | C[Si](C)(C)c1cc2c3c(c1)O[C@H](CO)[C@H](O)[C@@H]3OC2
Histone acetyltransferase p300, CH1 domain (EP300, Homo sapiens, UniProt Q09472) | binding, tryptophan fluorescence | – | 0.03 ± 0.01 µM | CCCC[C@@H](C(=O)N1CCN([C@@H](CCC(N)=O)C(N)=O)C(=O)[C@@H]1C)N1CCN[C@@H](CC(C)C)C1=O
Rho guanine nucleotide exchange factor TIAM1, PDZ domain (TIAM1, Homo sapiens, UniProt Q13009) | fluorescence anisotropy | 25 °C, PDZ domain | 397 ± 17 µM | C[C@H](NC(=O)[C@H](Cc1ccc(O)cc1)NC(=O)[C@H](Cc1ccccc1)NC(=O)[C@H](CCC(=O)O)NC(=O)[C@H](CC(N)=O)NC(=O)[C@@H](NC(=O)[C@@H]1CCCN1C(=O)[C@H](C)NS(=O)(=O)c1cccc2c(N(C)C)cccc12)[C@@H](C)O)C(=O)O
Undecaprenyl phosphate-alpha-4-amino-4-deoxy-L-arabinose arabinosyl transferase (arnT, Pseudomonas aeruginosa, UniProt Q02R27) | – | – | ~10 µM | C[C@]12C=C[C@@]3(CC[C@@H]4[C@@](C)(COC(=O)C(=O)O)CCC[C@@]4(C)[C@@H]3CC1)C2
Bromodomain-containing protein 4, BD1 (BRD4, Homo sapiens, UniProt O60885) | binding, SPR | – | 15 µM | CCNC(=O)[C@H](C)NC(=O)c1cccc(-c2c(C)noc2C)c1
Islet amyloid polypeptide, aggregated (IAPP, Homo sapiens, UniProt P10997) | binding, saturation radioligand binding | 3 h, room temperature | 0.00831 µM | CN(C)c1ccc(-c2cc3cc(I)ccc3o2)cn1
NLRP3 | binding, SPR | – | 5.49 µM | C=C1C(=O)C23CC1(O)CC(OC(C)=O)C2C1(C)CCCC(C)(COC(C)=O)C1CC3O (stereo not drawn)
TP53 (Homo sapiens, UniProt P04637, M133L/N239Y/N268D/V203A/Y220C) | – | 20 °C, protein 75 µM | 247 ± 44 µM | Oc1c(I)cc(Cl)cc1CN1CCC(N2CCC(O)CC2)CC1
Dihydroxy-acid dehydratase, chloroplastic (DHAD, Arabidopsis thaliana, UniProt Q9LIR4) | microscale thermophoresis | – | 2.79 µM | CN1C(=O)C(O)(C(=O)O)Oc2ccccc21 (stereo not drawn)
BPTF bromodomain | bromodomain binding, PrOF NMR titration | pH 7.4, 5-fluorotryptophan-labelled bromodomain, 40-50 µM | 750 µM | CC(=O)NCCCC[C@H](NC(=O)CNC(=O)[C@H](C)NC(=O)[C@H](CCCCN)NC(=O)CNC(=O)CNC(=O)[C@H](C)NC(=O)[C@@H](N)Cc1ccc(O)cc1)C(=O)N[C@@H](CC(=O)O)C(=O)N[C@@H](CO)C(=O)NCC(=O)N[C@@H](CCCCN)C(=O)N[C@@H](C)C(=O)N[C@@H](CCCCN)C(=O)N[C@H](C(=O)N[C@@H](CCCCNC(C)=O)C(=O)N[C@@H](C)C(=O)N[C@H](C(=O)N[C@@H](CO)C(=O)N[C@@H](CCCNC(=N)N)C(N)=O)C(C)C)[C@@H](C)O
MMP14 (Homo sapiens, UniProt P50281) | binding, FP | – | 1.1 µM | C#CCN(CC(=O)N(CCOC)CC(=O)N(CCOC)CC(N)=O)C(=O)CN(CCOC)C(=O)CN(CCCOC)C(=O)CN(Cc1ccc(F)cc1)C(=O)[C@H](C)N(CC1CC1)C(=O)[C@H](C)NCc1ccc(S(N)(=O)=O)cc1
Galectin-9, N-terminal CRD (LGALS9, Homo sapiens, UniProt O00182) | binding, competitive fluorescence polarization | 20 °C, galectin-9 N-terminal domain 1.0 µM | > 2000 µM | CCCc1cc2c3c(c1CCC)O[C@H](CO)[C@H](O)[C@@H]3OC2
mutant MYC DNA, no G-quadruplex | surface plasmon resonance | – | 12.7 µM | Cc1ccc(NC(=O)c2c(C)oc3ccc(O)c(CN4CCCCCC4)c23)cc1
BPTF bromodomain | surface plasmon resonance | – | 195 ± 30 µM | CC(=O)NCCCC[C@H](NC(=O)CNC(=O)[C@H](C)NC(=O)[C@H](CCCCN)NC(=O)CNC(=O)CNC(=O)[C@H](C)NC(=O)[C@@H](N)Cc1ccc(O)cc1)C(=O)N[C@@H](CC(=O)O)C(=O)N[C@@H](CO)C(=O)NCC(=O)N[C@@H](CCCCN)C(=O)N[C@@H](C)C(=O)N[C@@H](CCCCNC(C)=O)C(=O)N[C@@H](C)C(=O)N[C@@H](CCCCN)C(=O)N[C@@H](C)C(=O)N[C@H](C(=O)N[C@@H](CO)C(=O)N[C@@H](CCCNC(=N)N)C(N)=O)C(C)C
LGALS9 | cell-free assay, FP | – | > 2000 µM | CC#Cc1cc2c3c(c1)O[C@H](CO)[C@H](O)[C@@H]3OC2
Fab B11 antibody (human) | binding, biolayer interferometry | with: biotinylated peptide on tips | 0.051 ± 0.001 µM | CC[C@H](C)[C@H](NC(=O)[C@H](CCCCN)NC(=O)[C@H](CCCCN)NC(=O)[C@@H](NC(=O)[C@H](CCC(=O)O)NC(=O)[C@H](CCC(=O)O)NC(=O)[C@H](CCC(=O)O)NC(=O)[C@H](CO)NC(=O)[C@H](CC(C)C)NC(=O)[C@H](CC(=O)O)NC(=O)[C@H](CC(C)C)NC(=O)CNC(=O)[C@H](CCCNC(=N)N)NC(=O)[C@H](CC(C)C)NC(=O)[C@H](CO)NC(=O)CNC(=O)CNC(=O)CNC(=O)CCCC[C@@H]1SC[C@@H]2NC(=O)N[C@@H]21)C(C)C)C(=O)N[C@@H](CC(C)C)C(=O)N[C@@H](CC(=O)O)C(=O)N[C@@H](CCC(=O)O)C(=O)N[C@H](C(=O)N[C@H](C(=O)N[C@@H](CCCCN)C(=O)N[C@@H](CC(=O)O)C(=O)N1CCC[C@H]1C(=O)N[C@@H](C)C(=O)N[C@@H](CC(=O)O)C(=O)O)C(C)C)[C@@H](C)CC
FGA/FGB/FGG (Homo sapiens, UniProt P02671+P02675+P02679) | isothermal titration calorimetry | – | > 50 µM | CC[C@H](C)[C@H](NC(=O)[C@H](Cc1c[nH]c2ccccc12)NC(=O)[C@@H]1CSSC[C@H](NC(=O)[C@H](CCC(=O)O)NC(=O)[C@@H](N)Cc2c[nH]c3ccccc23)C(=O)N2CCC[C@H]2C(=O)N[C@@H](Cc2ccc(O)cc2)C(=O)NCC(=O)N[C@@H](CC(C)C)C(=O)N1)C(=O)N[C@@H](CCC(N)=O)C(N)=O
V-type immunoglobulin domain-containing suppressor of T-cell activation (Mus musculus, UniProt Q9D659) | binding, MST | – | 0.146 µM | O=C(Cc1ccc(F)cc1)NCCOc1ccc(-c2ccc(F)cc2)nn1
NLRP3 | binding, microscale thermophoresis | – | ~0.5 µM | O=C(O)c1ccc(/C=C2\SC(=S)N(Cc3cccc(C(F)(F)F)c3)C2=O)cc1
Fab B11 antibody (human) | binding, biolayer interferometry | with: biotinylated peptide on tips | 0.2 ± 0.005 µM | CC[C@H](C)[C@H](NC(=O)[C@H](CCCCN)NC(=O)[C@H](CCCCN)NC(=O)[C@@H](NC(=O)[C@H](CCC(=O)O)NC(=O)[C@H](CCC(=O)O)NC(=O)[C@H](CCC(=O)O)NC(=O)[C@H](CO)NC(=O)[C@H](C)NC(=O)[C@H](CC(=O)O)NC(=O)[C@H](CC(C)C)NC(=O)CNC(=O)[C@H](CCCNC(=N)N)NC(=O)[C@H](CC(C)C)NC(=O)[C@H](CO)NC(=O)CNC(=O)CNC(=O)CNC(=O)CCCC[C@@H]1SC[C@@H]2NC(=O)N[C@@H]21)C(C)C)C(=O)N[C@@H](CC(C)C)C(=O)N[C@@H](CC(=O)O)C(=O)N[C@@H](CCC(=O)O)C(=O)N[C@H](C(=O)N[C@H](C(=O)N[C@@H](CCCCN)C(=O)N[C@@H](CC(=O)O)C(=O)O)C(C)C)[C@@H](C)CC
STUB1 (Homo sapiens, UniProt Q9UNE7) | binding, fluorescence polarization | – | 9.6 µM | O=C1c2ccc(O)cc2-c2c(-c3ccc(O)cc3)oc3cc(O)cc1c23
RNA with single C–U pair | binding, ITC | 25 °C, 1 | 85 ± 30 µM | CN(C)CCNC(=O)c1cccc2c(NCCCCc3c(N)nc(N)nc3N)c3ccccc3nc12

For quick reference, copied from above:
target | test | setting | Kd | SMILES
TP53 (Homo sapiens, UniProt P04637, M133L/N239Y/N268D/V203A/Y220C) | – | 20 °C, protein 75 µM | 247 ± 44 µM | Oc1c(I)cc(Cl)cc1CN1CCC(N2CCC(O)CC2)CC1
